Measured values gathered from unrelated publications.
Values joined by “and” are separate records of one study, mostly repeats; a detail may differ. ± marks the error that the study gave.

`CC(CCC(=O)NCc1ccc(C(=O)NO)cc1)C1CCC2C3C(O)CC4CC(O)CCC4(C)C3CCC12C` (stereo not drawn) has a relative abundance of 33.1% (measured: Tauro-conj; PCK rat (Pkhd1 mutant), portal blood; oral gavage, dose not given, 5 months; baseline: total bile acids).
The 14-HDHA level of `COc1cc(O)ccc1CCC(c1ccc(O)cc1)c1cc2c(c(C)c1O)OC(c1ccc(O)cc1)CC2` (mixture of isomers) is reported as 529 ± 103 pg/mL (human blood; 0.3 µM, added: A23187).
`Cc1cccc(NC(=O)CCN2CCN(C/C=C/c3ccccc3)CC2)c1` has a larval motion of 5.8 ± 1 pixels/frame (zebrafish larvae, 7 dpf; 10 µM, minute 4).
Under “rhabdomere count mean difference”, `CC[C@H](C)[C@H](NC(=O)[C@H](Cc1ccc(O)cc1)NC(=O)[C@H](CCC(=O)O)NC(=O)CNC(=O)[C@H](CCC(=O)O)NC(=O)[C@H](CCCCN)NC(=O)[C@H](CCCCN)NC(=O)[C@H](CC(=O)O)NC(=O)[C@H](Cc1c[nH]cn1)NC(=O)[C@H](Cc1c[nH]cn1)NC(=O)[C@H](Cc1c[nH]cn1)NC(=O)[C@H](Cc1c[nH]cn1)NC(=O)[C@H](Cc1c[nH]cn1)NC(=O)[C@H](Cc1c[nH]cn1)NC(=O)[C@H](Cc1c[nH]cn1)NC(=O)[C@H](Cc1c[nH]cn1)NC(=O)[C@H](Cc1c[nH]cn1)NC(=O)[C@@H](N)Cc1c[nH]cn1)C(=O)N[C@@H](CCCCN)C(=O)N[C@@H](CC(C)C)C(=O)N[C@@H](CCCCN)C(=O)N[C@H](C(=O)N[C@H](C(=O)NCC(=O)N[C@@H](CCC(N)=O)C(=O)N[C@@H](CC(=O)O)C(=O)N[C@@H](CO)C(=O)N[C@@H](CO)C(=O)N[C@@H](CCC(=O)O)C(=O)N[C@H](C(=O)N[C@@H](Cc1c[nH]cn1)C(=O)N[C@@H](Cc1ccccc1)C(=O)N[C@@H](CCCCN)C(=O)N[C@H](C(=O)N[C@@H](CCCCN)C(=O)N[C@@H](CCSC)C(=O)N[C@H](C(=O)N[C@H](C(=O)N[C@@H](Cc1c[nH]cn1)C(=O)N[C@@H](CC(C)C)C(=O)N[C@@H](CCCCN)C(=O)N[C@@H](CCCCN)C(=O)N[C@@H](CC(C)C)C(=O)N[C@@H](CCCCN)C(=O)N[C@@H](CCC(=O)O)C(=O)N[C@@H](CO)C(=O)N[C@@H](Cc1ccc(O)cc1)C(=O)N[C@@H](CS)C(=O)N[C@@H](CCC(N)=O)C(=O)N[C@@H](CCCNC(=N)N)C(=O)N[C@@H](CCC(N)=O)C(=O)O)[C@@H](C)O)[C@@H](C)O)C(C)C)[C@@H](C)CC)[C@@H](C)CC)C(C)C` is recorded as -1.68 (pseudopupil; Drosophila α-synuclein A53T transgenic; 120 µM; baseline: untreated).
For `Cc1cn(CC(=O)N(CC(=O)N[C@H]2COC[C@@H]2N(CC(=O)NCCOCCOCC(N)=O)C(=O)Cn2cnc3c(N)ncnc32)[C@H]2COC[C@@H]2NC(=O)CN(C(=O)Cn2cnc3c(N)ncnc32)[C@H]2COC[C@@H]2NC(=O)CN(C(=O)Cn2cnc3c(=O)[nH]c(N)nc32)[C@H]2COC[C@@H]2NC(=O)CN(C(=O)Cn2cc(C)c(=O)[nH]c2=O)[C@H]2COC[C@@H]2NC(=O)CN(C(=O)Cn2cnc3c(=O)[nH]c(N)nc32)[C@H]2COC[C@@H]2NC(=O)CN(C(=O)Cn2cc(C)c(=O)[nH]c2=O)[C@H]2COC[C@@H]2NC(=O)CN(C(=O)Cn2cnc3c(N)ncnc32)[C@H]2COC[C@@H]2NC(=O)CN(C(=O)Cn2cnc3c(=O)[nH]c(N)nc32)[C@H]2COC[C@@H]2N)c(=O)[nH]c1=O`, the Tm was 53.7 °C (UV melting; RNA duplex with T·U mismatch; pH 7.2, 1 µM each strand).
Under “GFAP astrocytic staining”, `C[C@@H](Nc1c(-c2c(F)cc(C#N)cc2F)c(Cl)nc2ncnn12)C(C)(C)C` is recorded as “decreased” (male PS19 tau transgenic mice, brain; intraperitoneal, 3 mg/kg twice weekly, 3 months; baseline: vehicle).
`CCCCCCCCCCCCCCCC(=O)NCCCC[C@H](NC(=O)[C@H](CCC(=O)O)NC(=O)[C@H](Cc1ccc(O)cc1)NC(=O)[C@H](CCC(=O)O)NC(=O)COCC(=O)NCCCOCCOCCOCCCNC(=O)[C@H](Cc1ccccc1)NC(=O)[C@H](CC(N)=O)NC(=O)[C@H](Cc1c[nH]cn1)NC(=O)[C@@H](NC(=O)[C@H](CC(=O)O)NC(=O)[C@H](CCC(N)=O)NC(=O)[C@H](CC(C)C)NC(=O)[C@H](CCCCN)NC(=O)[C@H](CCCCN)NC(=O)[C@H](CCCNC(=N)N)NC(=O)[C@H](CC(C)C)NC(=O)[C@H](Cc1c[nH]c2ccccc12)NC(=O)[C@H](CCC(=O)O)NC(=O)[C@@H](NC(=O)[C@H](CCCNC(=N)N)NC(=O)[C@H](CCC(=O)O)NC(=O)[C@H](CCSC)NC(=O)[C@H](CO)NC(=O)[C@H](CC(N)=O)NC(=O)[C@H](CC(C)C)NC(=O)[C@H](Cc1c[nH]cn1)NC(=O)[C@H](CCCCN)NC(=O)CNC(=O)[C@H](CC(C)C)NC(=O)[C@H](CC(N)=O)NC(=O)[C@H](Cc1c[nH]cn1)NC(=O)[C@H](CCSC)NC(=O)[C@H](CC(C)C)NC(=O)[C@H](CCC(N)=O)NC(=O)[C@@H](NC(=O)[C@H](CCC(=O)O)NC(=O)[C@H](CO)NC(=O)[C@@H](NC(=O)[C@@H](N)CO)C(C)C)[C@@H](C)CC)C(C)C)C(C)C)C(=O)N[C@@H](CCC(=O)O)C(=O)N[C@@H](Cc1ccc(O)cc1)C(=O)N[C@@H](CCC(=O)O)C(N)=O` has a cortical porosity of 12.5 ± 3.17% (micro-CT; humanized PTH1R mouse, femur mid-shaft; 50 nmol/kg/day, 3 weeks, daily dosing, woven bone excluded).
For `O=C(CCCCCCc1ccccc1)c1ncc(-c2ccc(CBr)cn2)o1`, cold allodynia read “no effect” (mouse, chronic constriction injury, contralateral paw; i.p., 30 mg/kg).
`COc1ccc(NC(=O)c2ccc3[nH]c(-c4ccc(N(C)C)cc4)nc3c2)cn1` has a tumour volume of 311 mm3 and 112 mm3 and 226 mm3 and 562 mm3 and 272 mm3 (CT26, BALB/c mice, subcutaneous syngeneic graft; dose not given, day 9).
For `COC1CN([C@H]2CC[C@H]([C@@]3(C)Oc4c(Cl)cc(C(=O)NCc5c(SC)cc(C)[nH]c5=O)c(C)c4O3)CC2)C1`, “log2 fold change” read 2.75 (RNA-seq, measured: FAM110C; human, whole blood; dose not given, 24 h; baseline: pretreatment baseline).
`CC(=O)[O-].O.O.O.O.[Ni+2].[O-]c1ccc(Br)cc1C=NCCN1CCOCC1` gave an inhibition of 32.8% (hydroxyl radical scavenging; 120 µM).
For `COc1ccccc1-c1ccncc1C(=O)Nc1nnc(OCc2ccc(Cl)cc2)s1`, the colony survival was 55.2% (Brca1 Δ11/Δ11 MEF sgGFP, Mus musculus; 10 µM, mean of all runs; baseline: 0 µM).
`S=C(S)OC1CC2CC1C1CCCC21` (stereo not drawn): “extracellular enkephalin concentration” 115 pM and 645 pM and 309 pM and 97.3 pM and 404 pM and 388 pM and 471 pM and 737 pM (inhibitor, LC-MS/MS, measured: Met- or Leu-enkephalin; mouse striatal brain slices; 500 µM, 20 min, added: 50 mM KCl).
`CN1CCCNC(=O)c2cccc(c2)C(=O)NCCCN(C)CCCNc2cccc3c2C(=O)c2cccc(c2C3=O)NCCC1` gave a tumour volume of 297 mm3 (SAS xenograft, KSN/Slc nude mice; dose not given, 240 h (day 10), group mean).
The Tm of `Cc1cn(CC(=O)N(CC(=O)N[C@H]2CCC[C@@H]2N(CC(=O)N[C@H]2COC[C@@H]2N(CC(=O)N[C@H]2COC[C@@H]2N(CC(=O)N[C@H]2COC[C@@H]2N(CC(=O)NCCOCCOCC(N)=O)C(=O)Cn2cnc3c(N)ncnc32)C(=O)Cn2cc(C)c(=O)[nH]c2=O)C(=O)Cn2cnc3c(N)ncnc32)C(=O)Cn2cnc3c(=O)[nH]c(N)nc32)[C@H]2CCC[C@@H]2NC(=O)CN(C(=O)Cn2cnc3c(=O)[nH]c(N)nc32)[C@H]2CCC[C@@H]2NC(=O)CN(C(=O)Cn2cc(C)c(=O)[nH]c2=O)[C@H]2COC[C@@H]2NC(=O)CN(C(=O)Cn2cnc3c(N)ncnc32)[C@H]2COC[C@@H]2NC(=O)CN(C(=O)Cn2cnc3c(=O)[nH]c(N)nc32)[C@H]2COC[C@@H]2N)c(=O)[nH]c1=O` is reported as 66.1 °C (UV melting; RNA duplex with T·G mismatch; pH 7.2, 1 µM each strand).
`COc1cccc(OCC(O)CN2CCN(c3ccccc3OC)CC2)c1` (stereo not drawn) has a larval motion of 4.3 ± 1.4 pixels/frame (zebrafish larvae, 7 dpf; 10 µM, minute 4).
The AST/ALT ratio of `CC1(C)CC[C@@]2(CO)C(=C3C=C[C@@H]4[C@@]5(C)CC[C@H](O)[C@@](C)(CO)[C@@H]5CC[C@@]4(C)[C@]3(C)C[C@@H]2O)C1` is reported as 1.87 and 2.06 and 2.02 and 1.63 and 1.47 (Mus musculus, chronic-plus-binge ethanol, plasma; dose not given).
With `O=C(CCN1CCN(C/C=C/c2ccccc2)CC1)Nc1ccccc1` the larval motion was 2.8 ± 0.6 pixels/frame (locomotor activity in dark; zebrafish larvae, 7 dpf; 10 µM, minute 7, dark phase).
For `COc1ccc(C(=O)CCc2cc(C(CCc3ccc(O)cc3OC)c3ccc(O)cc3)c(O)cc2OC)cc1` (racemic), the 14-HDHA level was 957 ± 256 pg/mL (human blood; 3 µM, added: A23187).
For `CN(C)CCOCCOc1ccc(Cl)c(Cl)c1`, the larval motion was 3.8 ± 1.5 pixels/frame (zebrafish larvae, 7 dpf; 10 µM, minute 4).
`NC[C@@H](C(=O)Nc1ccc(-c2cn[nH]c2)cc1)c1ccccc1` gave an IOP of 37.5 mmHg (tonometry; NZW rabbit, magnetic bead-induced ocular hypertension; ocular, 0.1%, 48 h).
For `CN1CCC[C@]1(C)/C=C/S(=O)(=O)NC(=O)Nc1c2c(cc3c1CCC3)CCC2`, the inhibition was 90.4% (IL-18 release; human, whole blood ex vivo; oral, 50 mg twice daily, day 14, 336 h, multiple ascending dose, added: LPS and ATP).
With `CCc1cc(OCCOCCN(C)C)ccc1Cl` the larval motion was 9.2 ± 1.4 pixels/frame (zebrafish larvae, 7 dpf; 10 µM, minute 6).
With `Cc1cn(CC(=O)N(CCNC(=O)CN(CCNC(=O)CN(CCNC(=O)CN(CCNC(=O)CN(CCNC(=O)CN(CCNC(=O)CN(CCNC(=O)CN(CCN)C(=O)Cn2cnc3c(=O)[nH]c(N)nc32)C(=O)Cn2cnc3c(N)ncnc32)C(=O)Cn2cc(C)c(=O)[nH]c2=O)C(=O)Cn2cnc3c(=O)[nH]c(N)nc32)C(=O)Cn2cc(C)c(=O)[nH]c2=O)C(=O)Cn2cnc3c(=O)[nH]c(N)nc32)C(=O)Cn2cnc3c(N)ncnc32)CC(=O)NCCN(CC(=O)NCCOCCOCC(N)=O)C(=O)Cn2cnc3c(N)ncnc32)c(=O)[nH]c1=O` the Tm was 31.3 °C (UV melting; RNA duplex with T·U mismatch; pH 7.2, 1 µM each strand).
For `O=C(CCN1CCN(C/C=C/c2ccccc2)CC1)Nc1ccccc1F`, the larval motion was 2.3 ± 0.9 pixels/frame (locomotor activity in dark; zebrafish larvae, 7 dpf; 10 µM, minute 7, dark phase).
`CN(C)C(=O)c1ccnc(N2Cc3cn(Cc4ccc(F)cc4F)nc3C2)n1` has a paired-pulse ratio of 1.45 and 1.95 and 1.24 and 1.42 and 1.37 and 1.34 (mouse, hippocampal slice, Schaffer collaterals; dose not given, interstimulus interval 200; baseline: second over first response).
The larval motion of `COc1ccc(N2CCN(CC(O)COc3ccc4ccccc4c3)CC2)cc1` (stereo not drawn) is reported as 11.3 ± 1.6 pixels/frame (zebrafish larvae, 7 dpf; 10 µM, minute 4).
`CCC(=O)N[C@@H](C)C(=O)OCC(=O)N[C@@H](C)C(=O)O`: “chain scission rate constant” 0.0134 h⁻¹ (water; pH 7, 37 °C).
`Cc1ccc(C)c(OCC(O)CN2CCN(c3cc(Cl)ccc3C)CC2)c1` (stereo not drawn) has a larval motion of 1.8 ± 0.5 pixels/frame (zebrafish larvae, 7 dpf; 10 µM, minute 2).
`C[C@@H]1CN(c2ccnc(C(=O)N[C@H]3C[C@@H]3c3ccccc3)c2)CC[C@@H]1O` gave a creatine concentration of 1200 µg/mL and 1060 µg/mL and 849 µg/mL (female heterozygous SLC6A8 P549L mice, cortex; oral, 30 mg/kg once daily).
